Published values of several laboratories.
Every numbered part comes from another study and shows a few of its results, in no order.
Chain of UniProt Q9UQB9 (whole entry, looked up): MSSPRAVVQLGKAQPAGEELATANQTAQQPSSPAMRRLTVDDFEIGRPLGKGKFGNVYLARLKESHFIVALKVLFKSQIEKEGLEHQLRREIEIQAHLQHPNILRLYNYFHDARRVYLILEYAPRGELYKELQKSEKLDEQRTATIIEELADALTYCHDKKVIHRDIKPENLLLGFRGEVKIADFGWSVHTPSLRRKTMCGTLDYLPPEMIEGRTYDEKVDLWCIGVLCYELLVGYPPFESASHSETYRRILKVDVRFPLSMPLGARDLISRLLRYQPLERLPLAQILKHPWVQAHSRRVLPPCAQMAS
Chain of UniProt Q9UK32 (whole entry, looked up): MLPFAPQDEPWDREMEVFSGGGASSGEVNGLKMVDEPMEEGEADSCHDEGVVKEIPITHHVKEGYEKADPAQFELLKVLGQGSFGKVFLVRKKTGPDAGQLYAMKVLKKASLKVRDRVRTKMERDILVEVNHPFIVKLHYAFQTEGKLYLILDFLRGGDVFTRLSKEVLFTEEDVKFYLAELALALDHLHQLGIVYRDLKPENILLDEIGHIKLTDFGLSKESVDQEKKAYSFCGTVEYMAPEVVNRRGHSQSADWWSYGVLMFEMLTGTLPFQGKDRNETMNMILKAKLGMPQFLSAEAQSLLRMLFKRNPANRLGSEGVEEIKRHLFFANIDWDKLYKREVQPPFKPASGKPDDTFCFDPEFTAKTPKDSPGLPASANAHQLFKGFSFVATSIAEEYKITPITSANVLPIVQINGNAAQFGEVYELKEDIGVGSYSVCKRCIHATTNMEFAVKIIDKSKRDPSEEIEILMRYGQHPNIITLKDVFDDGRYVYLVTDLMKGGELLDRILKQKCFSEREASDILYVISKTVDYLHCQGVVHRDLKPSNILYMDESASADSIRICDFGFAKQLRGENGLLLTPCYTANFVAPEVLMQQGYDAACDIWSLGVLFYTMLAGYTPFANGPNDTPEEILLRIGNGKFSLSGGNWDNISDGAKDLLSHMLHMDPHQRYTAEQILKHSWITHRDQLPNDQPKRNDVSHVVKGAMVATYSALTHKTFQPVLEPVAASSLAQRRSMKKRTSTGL
Chain of UniProt Q99759 (whole entry, looked up): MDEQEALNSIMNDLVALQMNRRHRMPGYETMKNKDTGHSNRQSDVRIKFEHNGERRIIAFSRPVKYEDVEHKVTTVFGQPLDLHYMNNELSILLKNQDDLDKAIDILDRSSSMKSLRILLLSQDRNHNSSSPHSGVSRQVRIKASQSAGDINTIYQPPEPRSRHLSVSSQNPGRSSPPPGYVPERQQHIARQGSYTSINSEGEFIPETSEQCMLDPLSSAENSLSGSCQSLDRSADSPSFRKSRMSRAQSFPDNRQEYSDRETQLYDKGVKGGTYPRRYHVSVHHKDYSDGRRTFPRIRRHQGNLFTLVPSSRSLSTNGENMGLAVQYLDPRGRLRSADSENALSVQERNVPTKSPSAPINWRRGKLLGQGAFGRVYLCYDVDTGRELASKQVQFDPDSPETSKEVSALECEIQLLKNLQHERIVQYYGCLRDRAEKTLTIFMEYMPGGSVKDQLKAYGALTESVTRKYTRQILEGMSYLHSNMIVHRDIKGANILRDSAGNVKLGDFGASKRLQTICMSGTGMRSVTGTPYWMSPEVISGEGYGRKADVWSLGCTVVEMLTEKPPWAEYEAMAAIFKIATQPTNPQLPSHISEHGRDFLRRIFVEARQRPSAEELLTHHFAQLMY
Chain of UniProt Q5RL73 (25-145, looked up): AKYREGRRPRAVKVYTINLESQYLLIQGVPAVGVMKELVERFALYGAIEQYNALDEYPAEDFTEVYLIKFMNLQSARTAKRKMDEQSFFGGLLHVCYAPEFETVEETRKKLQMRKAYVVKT

Sample 1 — read-out: enzyme activity; action: inhibitor; concentration: 0.5 µM; baseline: control
Target: MAP kinase-activated protein kinase 5 (MAPKAPK5, Homo sapiens, UniProt Q8IW41)
Residues (Q8IW41 1-473): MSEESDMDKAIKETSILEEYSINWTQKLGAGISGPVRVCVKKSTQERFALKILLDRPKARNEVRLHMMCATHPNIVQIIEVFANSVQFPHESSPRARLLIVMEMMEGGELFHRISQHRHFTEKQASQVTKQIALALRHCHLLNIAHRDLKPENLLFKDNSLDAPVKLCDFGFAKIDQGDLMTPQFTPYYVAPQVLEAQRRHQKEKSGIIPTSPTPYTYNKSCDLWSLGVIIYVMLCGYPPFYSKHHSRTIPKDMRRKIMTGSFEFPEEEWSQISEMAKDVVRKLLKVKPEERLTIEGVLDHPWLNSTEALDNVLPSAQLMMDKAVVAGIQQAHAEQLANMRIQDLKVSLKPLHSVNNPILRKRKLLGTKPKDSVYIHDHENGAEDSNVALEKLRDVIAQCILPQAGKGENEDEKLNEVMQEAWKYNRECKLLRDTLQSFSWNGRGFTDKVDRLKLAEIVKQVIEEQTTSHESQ
The remaining activity of `CCCCc1c(-c2ccc(O)cc2)[nH]c2nccnc12` is reported as 93.1%.
With `CC(C)(C)c1nc2c3cc[nH]c(=O)c3c3cc(F)ccc3c2[nH]1` the remaining activity was 88.1%.
With `NC(=O)c1ccc(-c2nc(-c3ccc4c(c3)OCCO4)c(-c3ccccn3)[nH]2)cc1` the remaining activity was 69.6%.
With `FC(F)(F)c1ccc(/C=C/c2nc(COc3ccc(CCCCn4ccnn4)cc3)co2)cc1` the remaining activity was 101%.
For `O=C(c1ccccc1)c1ccc(N2CCOCC2)cc1O`, the remaining activity was 99.8%.
`NC(=O)c1cccc(-c2cc(Nc3ccc(OC(F)(F)F)cc3)ncn2)c1` gave a remaining activity of 94.3%.
The remaining activity of `O=C(O)/C=C/c1cc(Br)c(Br)c(Br)c1Br` is reported as 72.6%.

Sample 2 — cell line: HaCaT; concentration: 100 µM; time: 18 h
With `Cc1ccccc1C(=O)Nc1ccc(C(=O)N2CCCC(N(C)C)c3ccccc32)cc1` (stereo not shown) the viability was 65.4%.
`N=C(N)N/N=C/c1c(Cl)cccc1Cl` gave a viability of 85.1%.
With `NCCCC[C@H](NC(=O)[C@@H]1CCCN1C(=O)[C@@H]1CSSC[C@H](N)C(=O)N[C@@H](Cc2ccccc2)C(=O)N[C@@H](Cc2ccccc2)C(=O)N[C@@H](CCC(N)=O)C(=O)N[C@@H](CC(N)=O)C(=O)N1)C(=O)NCC(N)=O` the viability was 112%.
The viability of `CC(CN(C)C)CN1c2ccccc2Sc2ccccc21` (stereo not shown) is reported as 20.2%.

Sample 3 — read-out: cell-free assay; method: competition with immobilised ligand; concentration: 1 µM
SMILES: Cc1c(NC(=O)c2cc(C(N)=O)nc3cc(F)ccc23)c(C(F)(F)F)nn1Cc1ccc(C#N)cc1
It gave 66% for remaining binding (Mitogen-activated protein kinase kinase kinase 3 (MAP3K3, Homo sapiens, UniProt Q99759)).
It gave 66% for remaining binding (Ribosomal protein S6 kinase alpha-6, C-terminal kinase domain (RPS6KA6, Homo sapiens, UniProt Q9UK32)).
The remaining binding was 90% (Aurora kinase C (AURKC, Homo sapiens, UniProt Q9UQB9)).
Hepatocyte growth factor receptor (MET, Homo sapiens, UniProt P08581, Y1235D) — remaining binding: 100%.

Further values, each from its own experiment
For `AAAAAAAA (biotin)`, the signal ratio was 0.071 (RNA-binding protein 48, RRM domain (RBM48, Homo sapiens, UniProt Q5RL73, residues 25-145); protein domain microarray; RNA, in vitro; not given, poly(A) 8-mer RNA, whole probe, immobilized GST-fusion domains, most near background; baseline: GST loading signal, higher = stronger binding).

Repeated from above (sample 1):
With `CC(C)(C)c1nc2c3cc[nH]c(=O)c3c3cc(F)ccc3c2[nH]1` the remaining activity was 88.1%.
`NC(=O)c1cccc(-c2cc(Nc3ccc(OC(F)(F)F)cc3)ncn2)c1` gave a remaining activity of 94.3%.
